Measured values from different studies.
Compare with care: the assays were run in different laboratories. Numbers after ± are the reported error.
Organism: Plasmodium falciparum

Nc1ncnc2c1c(-c1ccc(Oc3ccccc3)cc1)cn2C1CCCC1  IC50 (merozoite invasion of erythrocytes; FVO): 30 µM
CC[C@H](C)[C@@H]1NC(=O)[C@H](CCCCN)NC(=O)[C@H](CCCCN)NC(=O)[C@H](Cc2ccc(O)cc2)NC(=O)[C@H](CC(C)C)NC(=O)[C@@H]2CCCN2C(=O)[C@H](C)NC(=O)CNC(=O)CNC(=O)[C@H](CO)NC(=O)CNC(=O)CNC(=O)[C@H](CCCNC(=N)N)NC(=O)[C@H](CCC(=O)O)NC(=O)[C@H](CC(C)C)NC(=O)[C@H](Cc2c[nH]cn2)NC(=O)[C@H](CCCCN)NC(=O)[C@H](CCCCN)NC(=O)[C@H]([C@@H](C)CC)NC(=O)[C@H]([C@@H](C)CC)NC(=O)[C@H](CCCCN)NC(=O)[C@H](CCCCN)NC(=O)[C@H](Cc2ccc(O)cc2)NC(=O)[C@H](CC(C)C)NC(=O)[C@@H]2CCCN2C(=O)CNC(=O)CNC(=O)[C@@H](NC(=O)CN)CSSC[C@@H](C(N)=O)NC(=O)[C@H](Cc2c[nH]cn2)NC(=O)[C@H](CCCCN)NC(=O)[C@H](CCCCN)NC(=O)[C@H]([C@@H](C)CC)NC1=O  IC50 (parasite growth; 3D7; 72 h, Albumax II medium, no serum): > 67.5 µM
OCCc1cc(CN(Cc2ccccn2)Cc2ccccn2)c(O)c(CN(Cc2ccccn2)Cc2ccccn2)c1  IC50 (growth, [3H]hypoxanthine incorporation; W2 chloroquine-resistant; 48 h): 0.347 ± 0.073 µM
COc1cc2c3cc1Oc1cc(ccc1O)CC1c4c(cc(OC)c(O)c4Oc4ccc(cc4)CC3N(C)CC2)CCN1C (stereo not shown)  IC50 (parasite growth, SYBR Green I; 3D7): < 1 µM
C[C@@H](C[C@@H](O)[C@H](O)C(C)(C)O)[C@@H]1CC[C@]2(C)C3=CC[C@H]4C(C)(C)[C@@H](O)CC[C@]4(C)[C@H]3CC[C@@]12C  IC50 ([3H]hypoxanthine incorporation; W2, chloroquine-resistant): 37.2 ± 3.2 µM
COC(=O)[C@@H]1Cc2c([nH]c3ccccc23)[C@H](c2cccnc2)N1  IC50 (parasite growth; 48 h, drug-resistant strain, blood stage): 5.22 mg/L
CC[C@H](C)[C@@H]1NC(=O)[C@H](CCCCN)NC(=O)[C@H](CCCNC(=N)N)NC(=O)[C@H](Cc2ccc(O)cc2)NC(=O)[C@H](CC(C)C)NC(=O)[C@@H]2CCCN2C(=O)[C@H](C)NC(=O)CNC(=O)CNC(=O)[C@H](CO)NC(=O)CNC(=O)CNC(=O)[C@H](CO)NC(=O)[C@H](CCC(=O)O)NC(=O)[C@H](CC(C)C)NC(=O)[C@H](CC(C)C)NC(=O)[C@H](CCCCN)NC(=O)[C@H](CCCCN)NC(=O)[C@H]([C@@H](C)CC)NC(=O)[C@H]([C@@H](C)CC)NC(=O)[C@H](CCCCN)NC(=O)[C@H](CCCNC(=N)N)NC(=O)[C@H](Cc2ccc(O)cc2)NC(=O)[C@H](CC(C)C)NC(=O)[C@@H]2CCCN2C(=O)CNC(=O)CNC(=O)[C@@H](NC(=O)CN)CSSC[C@@H](C(N)=O)NC(=O)[C@H](CC(C)C)NC(=O)[C@H](CCCCN)NC(=O)[C@H](CCCCN)NC(=O)[C@H]([C@@H](C)CC)NC1=O  IC50 (parasite growth; 3D7; 72 h, 5% serum plus Albumax II): 11.3 ± 0.7 µM
COC1=CC(c2ccc[nH]2)=NC1=CNC1CC1  IC50 (parasite growth; Dd2, chloroquine-resistant): 2.5 µM
CC[C@H](C)[C@@H]1NC(=O)[C@H](CCCNC(=N)N)NC(=O)[C@H](CCCCN)NC(=O)[C@H](Cc2ccc(O)cc2)NC(=O)[C@H](CC(C)C)NC(=O)[C@@H]2CCCN2C(=O)[C@H](C)NC(=O)CNC(=O)CNC(=O)[C@H](CO)NC(=O)CNC(=O)CNC(=O)[C@H](CO)NC(=O)[C@H](CCC(=O)O)NC(=O)[C@H](CC(C)C)NC(=O)[C@H](CC(C)C)NC(=O)[C@H](CCCCN)NC(=O)[C@H](CCCCN)NC(=O)[C@H]([C@@H](C)CC)NC(=O)[C@H]([C@@H](C)CC)NC(=O)[C@H](CCCNC(=N)N)NC(=O)[C@H](CCCCN)NC(=O)[C@H](Cc2ccc(O)cc2)NC(=O)[C@H](CC(C)C)NC(=O)[C@@H]2CCCN2C(=O)CNC(=O)CNC(=O)[C@@H](NC(=O)CN)CSSC[C@@H](C(N)=O)NC(=O)[C@H](CC(C)C)NC(=O)[C@H](CCCCN)NC(=O)[C@H](CCCCN)NC(=O)[C@H]([C@@H](C)CC)NC1=O  IC50 (parasite growth; 3D7; 72 h, Albumax II medium, no serum): 4.5 ± 0.1 µM
COc1cccc2c(-c3ccc(O)c4c3CC(C)(C)N=C4)ccc(OC(C)C)c12  IC50 (parasite growth, SYBR Green; W2; 96 h, drug-resistant strain, blood stage): 0.238 µM
COC1=CC(c2ccc[nH]2)=NC1=Cc1[nH]c(Cc2ccc(Cl)cc2)cc1Cc1ccc(Cl)cc1  IC50 (parasite growth; Dd2, chloroquine-resistant): 0.0048 µM
CN(C)CCNC(=O)/C=C/[C@H](Cc1ccccc1)Nc1ccnc2cc(Cl)ccc12  IC50 (parasite growth, SYTOX green flow cytometry; K1 chloroquine-resistant; 48 h, ring stage): 0.142 ± 0.0567 µM
Cc1[nH]c(C=NC23CC4CC(CC(C4)C2)C3)c(C)c1-c1ccc[nH]1  IC50 (parasite growth; 7G8, chloroquine-resistant): 2 µM
O=C(C=CC(Cc1ccccc1)Nc1ccnc2cc(Cl)ccc12)NCCN1CCOCC1 (stereo not shown)  IC50 (parasite growth; K1; drug-resistant strain, blood stage): 0.282 µM
COC1=CC(c2ccc[nH]2)=NC1=CNC12CC3CC(CC(C3)C1)C2  IC50 (parasite growth; 7G8, chloroquine-resistant): 0.0038 µM
CC[C@H](C)[C@@H]1NC(=O)[C@H](CCCCN)NC(=O)[C@H](CCCCN)NC(=O)[C@H](Cc2ccc(O)cc2)NC(=O)[C@H](CC(C)C)NC(=O)[C@@H]2CCCN2C(=O)[C@H](C)NC(=O)CNC(=O)CNC(=O)[C@H](CO)NC(=O)CNC(=O)CNC(=O)[C@H](CC(N)=O)NC(=O)[C@H](CCC(=O)O)NC(=O)[C@H](CC(C)C)NC(=O)[C@H](CC(C)C)NC(=O)[C@H](CCCCN)NC(=O)[C@H](CCCCN)NC(=O)[C@H]([C@@H](C)CC)NC(=O)[C@H]([C@@H](C)CC)NC(=O)[C@H](CCCCN)NC(=O)[C@H](CCCCN)NC(=O)[C@H](Cc2ccc(O)cc2)NC(=O)[C@H](CC(C)C)NC(=O)[C@@H]2CCCN2C(=O)[C@H](C)NC(=O)CNC(=O)CNC(=O)[C@H](CO)NC(=O)CNC(=O)CNC(=O)[C@H](CC(N)=O)NC(=O)[C@H](CCC(=O)O)NC(=O)[C@H](CC(C)C)NC(=O)[C@H](CC(C)C)NC(=O)[C@H](CCCCN)NC(=O)[C@H](CCCCN)NC(=O)[C@H]([C@@H](C)CC)NC1=O  IC50 (parasite growth; 3D7; 72 h, 5% serum plus Albumax II): 8.7 ± 0.7 µM
CCC1=C(C)C(c2ccc[nH]2)=NC1=CNC1CCCCCC1  IC50 (parasite growth; 7G8, chloroquine-resistant): 0.117 µM
CC[C@H](C)[C@@H]1NC(=O)[C@H](CCCCN)NC(=O)[C@H](CCCCN)NC(=O)[C@H](Cc2ccc(O)cc2)NC(=O)[C@H](CC(C)C)NC(=O)[C@@H]2CCCN2C(=O)[C@H](C)NC(=O)CNC(=O)CNC(=O)[C@H](CO)NC(=O)CNC(=O)CNC(=O)[C@H](CO)NC(=O)[C@H](CCC(=O)O)NC(=O)[C@H](CC(C)C)NC(=O)[C@H](CC(C)C)NC(=O)[C@H](CCCCN)NC(=O)[C@H](CCCCN)NC(=O)[C@H]([C@@H](C)CC)NC(=O)[C@H]([C@@H](C)CC)NC(=O)[C@H](CCCCN)NC(=O)[C@H](CCCCN)NC(=O)[C@H](Cc2ccc(O)cc2)NC(=O)[C@H](CC(C)C)NC(=O)[C@@H]2CCCN2C(=O)[C@H](C)NC(=O)CNC(=O)[C@@H](NC(=O)CN)CSSC[C@@H](C(=O)N[C@@H](CCC(=O)O)C(=O)N[C@@H](CO)C(N)=O)NC(=O)[C@H](CC(C)C)NC(=O)[C@H](CCCCN)NC(=O)[C@H](CCCCN)NC(=O)[C@H]([C@@H](C)CC)NC1=O  IC50 (parasite growth; 3D7; 72 h, 5% serum plus Albumax II): 26.2 ± 1.7 µM
CCC1=CC(=CNC2CCCCCC2)N=C1c1ccc[nH]1  IC50 (parasite growth; 7G8, chloroquine-resistant): 1.46 µM
OCCCCCCOCCCc1cccnc1  IC50 (anti-HRPII ELISA; W2 chloroquine-resistant; 72 h): 211 ± 12.7 µM
CC1=CC(c2ccc[nH]2)=NC1=CNC12CC3CC(CC(C3)C1)C2  IC50 (parasite growth; Dd2, chloroquine-resistant): 0.015 µM
C=CC1CN2CCC1CC2C(OC(=O)NCCCCCCNC(=O)OC(c1ccnc2ccc(OC)cc12)C1CC2CCN1CC2C=C)c1ccnc2ccc(OC)cc12 (stereo not shown)  IC50 (parasite growth; C4 Dd2 pfcrt transfectant): 0.075 ± 0.011 µM

A few entries again:
Cc1[nH]c(C=NC23CC4CC(CC(C4)C2)C3)c(C)c1-c1ccc[nH]1  IC50 (parasite growth; 7G8, chloroquine-resistant): 2 µM
O=C(C=CC(Cc1ccccc1)Nc1ccnc2cc(Cl)ccc12)NCCN1CCOCC1 (stereo not shown)  IC50 (parasite growth; K1; drug-resistant strain, blood stage): 0.282 µM
COC1=CC(c2ccc[nH]2)=NC1=CNC12CC3CC(CC(C3)C1)C2  IC50 (parasite growth; 7G8, chloroquine-resistant): 0.0038 µM
